Measured values pooled from the literature.
Lines come from different studies, so protocols differ. ± gives the spread as reported. ≈ marks a conversion by molar mass, not a printed value.
Chain of UniProt P49589 (whole entry, looked up): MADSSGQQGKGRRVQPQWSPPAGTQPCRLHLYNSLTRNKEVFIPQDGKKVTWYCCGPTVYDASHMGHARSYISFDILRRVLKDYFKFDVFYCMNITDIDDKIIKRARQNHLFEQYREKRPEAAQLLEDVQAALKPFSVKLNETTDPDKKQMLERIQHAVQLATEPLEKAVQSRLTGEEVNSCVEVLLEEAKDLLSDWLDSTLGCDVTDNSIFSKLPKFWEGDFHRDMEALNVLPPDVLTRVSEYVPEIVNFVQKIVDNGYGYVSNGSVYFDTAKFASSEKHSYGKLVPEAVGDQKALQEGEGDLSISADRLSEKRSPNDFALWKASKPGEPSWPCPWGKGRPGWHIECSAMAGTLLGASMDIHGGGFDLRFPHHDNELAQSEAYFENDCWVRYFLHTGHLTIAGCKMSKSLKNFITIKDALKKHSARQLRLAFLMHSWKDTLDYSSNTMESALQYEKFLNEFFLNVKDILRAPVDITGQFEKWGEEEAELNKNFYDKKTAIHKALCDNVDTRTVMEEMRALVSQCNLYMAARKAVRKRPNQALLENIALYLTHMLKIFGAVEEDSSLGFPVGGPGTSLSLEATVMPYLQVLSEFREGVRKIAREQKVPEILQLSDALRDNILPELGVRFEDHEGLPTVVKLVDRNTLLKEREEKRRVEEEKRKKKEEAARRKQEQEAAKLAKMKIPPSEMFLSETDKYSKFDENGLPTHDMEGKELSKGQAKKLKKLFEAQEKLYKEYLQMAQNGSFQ
Chain of UniProt Q16828 (whole entry, looked up): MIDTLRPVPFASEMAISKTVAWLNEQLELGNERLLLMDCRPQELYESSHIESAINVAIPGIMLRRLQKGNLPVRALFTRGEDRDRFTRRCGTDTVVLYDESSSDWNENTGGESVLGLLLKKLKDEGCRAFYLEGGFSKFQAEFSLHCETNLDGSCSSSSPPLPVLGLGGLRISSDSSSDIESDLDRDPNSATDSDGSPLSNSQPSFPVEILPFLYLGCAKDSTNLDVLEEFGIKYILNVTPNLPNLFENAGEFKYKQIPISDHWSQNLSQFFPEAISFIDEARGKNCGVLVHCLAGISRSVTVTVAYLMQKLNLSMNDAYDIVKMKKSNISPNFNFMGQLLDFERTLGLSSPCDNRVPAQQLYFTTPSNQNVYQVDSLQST

SMILES	tested on	test	test system	setting	how to read	endpoint	value
C[C@H]1CN(c2n[nH]c3nc(N[C@H]4CC[C@H](NS(=O)(=O)CCC(F)(F)F)CC4)ncc23)CCO1	Cysteine--tRNA ligase, cytoplasmic (Homo sapiens, UniProt P49589)	Kinobeads competition, refers to: CARS	–	0.8 µM, unit not given	reference: vehicle	remaining binding	1.44
C[C@H](C(=O)N[C@H]1COc2ccccc2[C@@H]1S(C)(=O)=O)c1ccc(F)cc1	sigma receptor, guinea pig	binding	–	10 µM, Eurofins selectivity panel	–	inhibition	-3%
CN1CCN(S(=O)(=O)c2cc([N+](=O)[O-])ccc2N(CCOS(C)(=O)=O)CCOS(C)(=O)=O)CC1	–	–	NSG mice, sample CF PDX	intraperitoneal, 25 mg/kg weekly x3	reference: treated over vehicle	EFS ratio (T/C)	10.5
COc1cc(CCC[P+](c2ccccc2)(c2ccccc2)c2ccccc2)c(OC)c2c1OCO2.[I-]	HOP-92	SRB	–	–	–	LC50	> -4 log M
CC[C@H](C)[C@@H]1NC(=O)[C@@H]2CCCN2C(=O)[C@H](CC(C)C)NC(=O)[C@H](CC(C)C)NC(=O)CNC(=O)[C@@H](NC(=O)[C@@H](NC(=O)[C@H](CC(=O)O)NC(=O)CNC(=O)[C@@H](NC(=O)[C@H](C)NC(=O)CNC(=O)[C@H](CCCCN)NC(=O)[C@H](CC(C)C)NC(=O)[C@H](CC(C)C)NC(=O)[C@H](CCCCN)NC(=O)CNC(=O)[C@@H](NC(=O)[C@@H](N)CC(C)C)C(C)C)C(C)C)C(C)C)CSSC[C@@H](C(=O)O)NC1=O	–	RNA-seq, refers to: Zbp1	mouse, traumatic brain injury model, frontal cortex and hippocampus	dose not given	reference: TBI alone	log2 fold change	-1.85
Cc1ccc(-c2ccc3c(ccc4sc5c(c43)NC[C@@H](C)NC5=O)n2)cn1	murine hepatitis virus	viral replication, nanoluciferase reporter	DBT	1 µM, 10 h	reference: DMSO vehicle	inhibition	34%
CO[C@H]1C[C@@H]2CC[C@@H](C)[C@@](O)(O2)C(=O)C(=O)N2CCCC[C@H]2C(=O)O[C@H]([C@H](C)C[C@@H]2CC[C@@H](OC(=O)NCCOCCOCCOCCOCCOCCOCCOCCOCCC(=O)N3CCc4cc(Cn5nc(-c6ccc7oc(N)nc7c6)c6c(N)ncnc65)ccc4C3)[C@H](OC)C2)C[C@@H](O)[C@H](C)/C=C(\C)[C@@H](O)[C@@H](OC)C(=O)[C@H](C)C[C@H](C)/C=C/C=C/C=C/1C	–	–	patients with advanced solid tumours	intravenous, 1.6 mg/3 mg weekly, grade ≥3	–	incidence of Diarrhea TRAE	0%
COc1c(CCC[P+](c2ccccc2)(c2ccccc2)c2ccccc2)cc2c(c1OC)OCO2.[I-]	UACC-257	SRB	–	–	–	GI50	-6.51 log M
C[C@@H](O)[C@@H](CO)NC(=O)[C@@H](CCCNC(=N)N)NC(=O)[C@@H]1CCCN1C(=O)[C@@H]1CSSC[C@H](NC(=O)[C@H](Cc2ccccc2)NC(=O)CN2CCN(CC(=O)O)CCN(CC(=O)O)CCN(CC(=O)O)CC2)C(=O)N[C@@H](Cc2ccc(O)cc2)C(=O)N[C@@H](Cc2ccccc2)C(=O)N[C@@H](CCC(N)=O)C(=O)N[C@@H](CC(N)=O)C(=O)N1 [gallium-68 labelled]	–	–	healthy Wistar rat, lungs	intravenous, 8 MBq, 60 min, individual animals	–	tissue uptake	0.51 %ID/g
CCCCC1(CCCC)CN(c2ccccc2)c2cc(SC)c(OCC(=O)N[C@@H](C(=O)NCC(=O)O)c3ccccc3)cc2S(=O)(=O)C1	–	refers to: HDL cholesterol	human, serum	15 mg once daily, day 14	–	serum HDL-C	43.2 mg/dL
COc1cc(Nc2ncc(F)c(Nc3ccc4c(n3)NC(=O)C(C)(C)O4)n2)cc(OC)c1OC	Dual specificity protein phosphatase 6 (Homo sapiens, UniProt Q16828)	enzyme activity, inhibitor	–	–	–	IC50	> 10 µM
CC[C@H](C)[C@H](NC(=O)[C@H](C)NC(=O)[C@H](CCCCN)NC(=O)[C@H](CC(C)C)NC(=O)[C@H](C)NC(=O)[C@@H](NC(=O)[C@H](Cc1c[nH]cn1)NC(=O)[C@H](CC(C)C)NC(=O)[C@@H](NC(=O)[C@@H](NC(=O)[C@H](CCCCN)NC(=O)[C@H](C)NC(=O)[C@H](C)NC(=O)[C@H](CO)NC(=O)[C@H](CCCCN)NC(=O)[C@H](Cc1ccccc1)NC(=O)[C@@H](NC(=O)[C@H](CCCCN)NC(=O)[C@H](CC(C)C)NC(=O)[C@H](Cc1ccccc1)NC(=O)[C@H](CO)NC(=O)[C@H](CCCCN)NC(=O)[C@H](Cc1c[nH]c2ccccc12)NC(=O)[C@H](CCCCN)NC(C)=O)[C@@H](C)O)[C@@H](C)O)C(C)C)[C@@H](C)O)C(=O)N[C@@H](CO)C(=O)N[C@@H](CO)C(N)=O	Streptococcus pyogenes	–	ATCC 13813	1 strain	–	MBC90	16 µg/mL (≈ 5.45 µM)
O=C(O)c1cn(Cc2ccc(F)cc2)c2ccccc12	–	glucuronidation, substrate	human intestinal microsomes	60 min, 37 °C, added: UDPGA	–	Vmax	0.59 ± 0.05 nmol/min/mg
COc1cc2c(Oc3ccc4[nH]c(C)cc4c3F)ccnc2cc1OCC1(N)CC1	–	refers to: grade 1 or 2 abdominal pain	paediatric high-risk refractory sarcoma	8 mg	–	incidence of adverse event	40%
O=C(NCCc1ncc(C(F)(F)F)cc1Cl)c1ccccc1C(F)(F)F	Fusarium graminearum	fungal growth, inhibitor	–	–	–	EC50	6.6 ± 0.94 µg/mL (≈ 16.6 µM)

A few entries again:
SMILES	tested on	test	test system	setting	how to read	endpoint	value
COc1cc(CCC[P+](c2ccccc2)(c2ccccc2)c2ccccc2)c(OC)c2c1OCO2.[I-]	HOP-92	SRB	–	–	–	LC50	> -4 log M
C[C@@H](O)[C@@H](CO)NC(=O)[C@@H](CCCNC(=N)N)NC(=O)[C@@H]1CCCN1C(=O)[C@@H]1CSSC[C@H](NC(=O)[C@H](Cc2ccccc2)NC(=O)CN2CCN(CC(=O)O)CCN(CC(=O)O)CCN(CC(=O)O)CC2)C(=O)N[C@@H](Cc2ccc(O)cc2)C(=O)N[C@@H](Cc2ccccc2)C(=O)N[C@@H](CCC(N)=O)C(=O)N[C@@H](CC(N)=O)C(=O)N1 [gallium-68 labelled]	–	–	healthy Wistar rat, lungs	intravenous, 8 MBq, 60 min, individual animals	–	tissue uptake	0.51 %ID/g
